# Published values of several laboratories.
# Numbered parts are unrelated; each lists some results of a single study.
# Sequence of UniProt P42680 (whole entry, looked up): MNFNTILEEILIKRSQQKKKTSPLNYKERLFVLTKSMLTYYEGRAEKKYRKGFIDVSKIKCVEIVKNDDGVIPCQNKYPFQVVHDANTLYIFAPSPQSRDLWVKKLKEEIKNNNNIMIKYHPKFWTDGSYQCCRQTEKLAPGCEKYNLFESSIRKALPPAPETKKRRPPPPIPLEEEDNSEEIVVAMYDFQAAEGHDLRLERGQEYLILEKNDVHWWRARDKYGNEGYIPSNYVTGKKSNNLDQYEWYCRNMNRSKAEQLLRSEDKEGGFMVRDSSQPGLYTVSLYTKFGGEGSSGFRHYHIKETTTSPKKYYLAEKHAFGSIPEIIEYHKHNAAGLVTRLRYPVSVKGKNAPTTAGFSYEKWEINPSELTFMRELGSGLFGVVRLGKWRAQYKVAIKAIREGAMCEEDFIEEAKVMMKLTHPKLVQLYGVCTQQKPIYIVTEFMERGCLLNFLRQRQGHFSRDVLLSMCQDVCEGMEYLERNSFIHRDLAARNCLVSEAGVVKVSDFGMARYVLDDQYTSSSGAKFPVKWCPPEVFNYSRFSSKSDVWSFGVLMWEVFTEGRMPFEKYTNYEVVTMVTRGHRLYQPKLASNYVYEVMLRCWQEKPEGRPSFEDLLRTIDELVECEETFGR
# Sequence of UniProt Q05655 (whole entry, looked up): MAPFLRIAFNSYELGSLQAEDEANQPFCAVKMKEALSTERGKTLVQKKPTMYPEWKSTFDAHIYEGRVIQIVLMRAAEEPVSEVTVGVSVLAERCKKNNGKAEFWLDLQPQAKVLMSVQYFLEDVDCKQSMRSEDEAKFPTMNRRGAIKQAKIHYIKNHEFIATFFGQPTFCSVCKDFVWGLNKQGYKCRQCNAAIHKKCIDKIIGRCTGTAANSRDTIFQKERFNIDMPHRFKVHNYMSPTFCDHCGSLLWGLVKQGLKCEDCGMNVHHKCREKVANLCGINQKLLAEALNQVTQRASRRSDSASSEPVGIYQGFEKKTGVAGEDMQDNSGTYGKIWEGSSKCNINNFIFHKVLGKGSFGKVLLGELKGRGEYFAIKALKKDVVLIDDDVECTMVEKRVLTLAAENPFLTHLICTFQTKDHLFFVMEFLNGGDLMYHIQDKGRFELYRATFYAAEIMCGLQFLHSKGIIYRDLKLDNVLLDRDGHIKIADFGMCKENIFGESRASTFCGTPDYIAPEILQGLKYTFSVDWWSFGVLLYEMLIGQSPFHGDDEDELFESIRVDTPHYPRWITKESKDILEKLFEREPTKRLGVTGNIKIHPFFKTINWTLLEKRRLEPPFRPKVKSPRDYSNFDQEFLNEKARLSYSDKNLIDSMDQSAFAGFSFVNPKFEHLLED
# Sequence of UniProt Q86Z02 (whole entry, looked up): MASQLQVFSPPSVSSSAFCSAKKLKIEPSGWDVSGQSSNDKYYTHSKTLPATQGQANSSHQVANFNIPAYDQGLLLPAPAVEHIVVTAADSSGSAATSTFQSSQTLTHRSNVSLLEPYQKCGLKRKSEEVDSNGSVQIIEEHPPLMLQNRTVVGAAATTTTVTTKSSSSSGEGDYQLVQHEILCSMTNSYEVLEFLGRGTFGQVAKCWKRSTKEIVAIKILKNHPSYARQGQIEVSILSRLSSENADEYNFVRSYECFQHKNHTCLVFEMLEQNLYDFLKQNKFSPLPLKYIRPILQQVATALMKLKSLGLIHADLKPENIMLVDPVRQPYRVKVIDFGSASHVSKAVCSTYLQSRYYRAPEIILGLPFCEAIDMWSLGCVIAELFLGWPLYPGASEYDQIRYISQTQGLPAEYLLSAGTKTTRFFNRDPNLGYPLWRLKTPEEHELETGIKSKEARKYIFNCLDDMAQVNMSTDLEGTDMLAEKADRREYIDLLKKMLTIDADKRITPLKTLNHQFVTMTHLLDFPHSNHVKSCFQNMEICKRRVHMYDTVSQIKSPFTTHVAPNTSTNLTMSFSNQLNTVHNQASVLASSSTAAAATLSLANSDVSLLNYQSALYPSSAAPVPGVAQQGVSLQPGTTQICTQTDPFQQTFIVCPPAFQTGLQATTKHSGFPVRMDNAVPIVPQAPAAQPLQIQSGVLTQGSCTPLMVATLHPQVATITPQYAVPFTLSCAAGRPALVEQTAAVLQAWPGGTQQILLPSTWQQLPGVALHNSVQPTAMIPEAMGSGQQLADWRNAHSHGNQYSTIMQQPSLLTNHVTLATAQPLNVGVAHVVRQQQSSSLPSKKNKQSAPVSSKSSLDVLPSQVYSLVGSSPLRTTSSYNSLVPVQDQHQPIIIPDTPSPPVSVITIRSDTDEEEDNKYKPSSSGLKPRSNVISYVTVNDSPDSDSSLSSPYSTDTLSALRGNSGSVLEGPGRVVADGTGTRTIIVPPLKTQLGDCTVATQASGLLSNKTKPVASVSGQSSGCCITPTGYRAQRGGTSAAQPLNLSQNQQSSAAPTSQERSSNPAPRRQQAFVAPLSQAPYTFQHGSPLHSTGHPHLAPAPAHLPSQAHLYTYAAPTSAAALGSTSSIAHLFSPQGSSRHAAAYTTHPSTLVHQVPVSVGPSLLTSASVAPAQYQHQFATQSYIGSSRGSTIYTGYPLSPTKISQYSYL
# Sequence of UniProt P54756 (whole entry, looked up): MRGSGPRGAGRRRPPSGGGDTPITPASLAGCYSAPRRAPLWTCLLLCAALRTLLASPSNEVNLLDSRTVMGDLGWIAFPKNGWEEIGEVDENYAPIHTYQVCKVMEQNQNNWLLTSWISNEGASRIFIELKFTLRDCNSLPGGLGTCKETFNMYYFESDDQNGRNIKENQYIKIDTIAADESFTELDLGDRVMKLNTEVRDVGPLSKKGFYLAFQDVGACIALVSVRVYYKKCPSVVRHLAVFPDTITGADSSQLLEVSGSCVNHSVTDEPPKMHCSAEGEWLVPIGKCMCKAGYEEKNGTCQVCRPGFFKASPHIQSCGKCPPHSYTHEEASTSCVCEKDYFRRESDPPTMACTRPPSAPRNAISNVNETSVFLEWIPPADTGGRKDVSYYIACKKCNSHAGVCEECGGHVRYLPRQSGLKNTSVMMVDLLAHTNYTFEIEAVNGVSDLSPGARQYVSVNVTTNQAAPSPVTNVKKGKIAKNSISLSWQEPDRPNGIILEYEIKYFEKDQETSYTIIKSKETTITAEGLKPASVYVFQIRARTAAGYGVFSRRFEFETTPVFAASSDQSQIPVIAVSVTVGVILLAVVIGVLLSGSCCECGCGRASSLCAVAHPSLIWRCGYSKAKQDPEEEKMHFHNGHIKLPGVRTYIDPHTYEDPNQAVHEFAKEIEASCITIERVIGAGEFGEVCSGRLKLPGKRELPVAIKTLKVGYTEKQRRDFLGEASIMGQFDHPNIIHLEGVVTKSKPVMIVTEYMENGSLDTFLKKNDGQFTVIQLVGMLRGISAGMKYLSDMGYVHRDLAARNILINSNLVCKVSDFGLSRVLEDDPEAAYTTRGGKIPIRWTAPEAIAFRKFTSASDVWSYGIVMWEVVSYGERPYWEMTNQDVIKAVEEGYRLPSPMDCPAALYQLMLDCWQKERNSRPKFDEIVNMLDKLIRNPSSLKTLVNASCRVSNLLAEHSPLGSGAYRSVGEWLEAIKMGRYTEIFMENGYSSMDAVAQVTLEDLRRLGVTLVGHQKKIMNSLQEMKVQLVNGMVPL
# Sequence of UniProt Q9NQU5 (whole entry, looked up): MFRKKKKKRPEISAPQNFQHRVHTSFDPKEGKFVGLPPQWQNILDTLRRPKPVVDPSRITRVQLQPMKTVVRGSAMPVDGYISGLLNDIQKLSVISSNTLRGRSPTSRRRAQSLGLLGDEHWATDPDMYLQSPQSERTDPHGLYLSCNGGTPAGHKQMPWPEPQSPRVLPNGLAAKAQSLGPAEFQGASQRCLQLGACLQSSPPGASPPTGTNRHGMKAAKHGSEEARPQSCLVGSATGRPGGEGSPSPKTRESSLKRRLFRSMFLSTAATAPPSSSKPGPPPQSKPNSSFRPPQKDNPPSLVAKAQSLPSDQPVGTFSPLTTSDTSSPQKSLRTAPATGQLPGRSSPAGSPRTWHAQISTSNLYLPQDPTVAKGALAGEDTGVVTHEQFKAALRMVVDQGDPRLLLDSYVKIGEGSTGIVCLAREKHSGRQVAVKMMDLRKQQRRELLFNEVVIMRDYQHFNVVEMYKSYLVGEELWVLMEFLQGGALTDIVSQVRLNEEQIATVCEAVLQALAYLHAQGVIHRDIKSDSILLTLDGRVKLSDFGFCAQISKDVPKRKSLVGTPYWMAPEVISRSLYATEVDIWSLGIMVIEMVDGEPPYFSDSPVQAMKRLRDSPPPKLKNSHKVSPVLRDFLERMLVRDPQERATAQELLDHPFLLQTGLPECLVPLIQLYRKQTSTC
# Sequence of UniProt Q96SB4 (whole entry, looked up): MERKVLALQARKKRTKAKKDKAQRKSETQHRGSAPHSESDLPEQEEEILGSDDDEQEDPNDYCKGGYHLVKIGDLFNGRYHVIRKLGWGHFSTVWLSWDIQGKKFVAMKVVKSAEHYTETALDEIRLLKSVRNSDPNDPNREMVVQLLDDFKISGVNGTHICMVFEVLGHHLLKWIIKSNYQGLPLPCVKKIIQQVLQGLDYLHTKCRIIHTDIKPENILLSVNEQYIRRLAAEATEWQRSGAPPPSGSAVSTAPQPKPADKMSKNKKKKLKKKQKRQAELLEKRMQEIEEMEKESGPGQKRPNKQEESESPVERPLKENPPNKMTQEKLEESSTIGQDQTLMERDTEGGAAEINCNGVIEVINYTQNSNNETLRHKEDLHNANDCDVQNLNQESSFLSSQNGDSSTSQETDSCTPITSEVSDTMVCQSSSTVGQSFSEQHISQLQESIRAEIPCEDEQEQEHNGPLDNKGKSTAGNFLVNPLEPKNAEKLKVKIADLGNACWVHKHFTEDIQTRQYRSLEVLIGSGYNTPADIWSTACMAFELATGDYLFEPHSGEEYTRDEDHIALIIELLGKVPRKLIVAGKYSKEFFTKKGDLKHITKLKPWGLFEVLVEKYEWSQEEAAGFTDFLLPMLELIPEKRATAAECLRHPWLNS

# Series 1
# SMILES: COc1ccc2[nH]c3c4[nH]c5ccc(OC)cc5c4c4c(c3c2c1)C(=O)NC4=O
# Tested at: 1 µM
target,read-out,technique,remaining binding [%]
"PAK6 (Homo sapiens, UniProt Q9NQU5)",binding,,100
"FGR (Homo sapiens, UniProt P09769)",cell-free assay,competition with immobilised ligand,68
"PTK6 (Homo sapiens, UniProt Q13882)",binding,competition with immobilised ligand,81
"PRKCD (Homo sapiens, UniProt Q05655)",binding,,93
"PRKAA2 (Homo sapiens, UniProt P54646)",binding,,54

# Series 2
# Structure (SMILES): CS(=O)(=O)N1CCCC(NC(=O)[C@H](CCC2CCCCC2)NC(=O)c2ccc(CNc3ncnc4c3nnn4-c3ccccc3)cc2)C1 (some centres unmarked)
# Technique: competition with immobilised ligand
# Tested at: 0.1 µM
target,read-out,remaining binding [%]
"DCLK2 (Homo sapiens, UniProt Q8N568)",cell-free assay,95
"LATS2 (Homo sapiens, UniProt Q9NRM7)",cell-free assay,100
"HIPK1 (Homo sapiens, UniProt Q86Z02)",cell-free assay,100
"EPHA6 (Homo sapiens, UniProt Q9UF33)",cell-free assay,100
"TGFBR2 (Homo sapiens, UniProt P37173)",cell-free assay,93
"SRPK1 (Homo sapiens, UniProt Q96SB4)",cell-free assay,78
"PIK3C2G (Homo sapiens, UniProt O75747)",cell-free assay,81
"ROCK1 (Homo sapiens, UniProt Q13464)",cell-free assay,93
"PIP5K1C (Homo sapiens, UniProt O60331)",cell-free assay,85
"MST1R (Homo sapiens, UniProt Q04912)",cell-free assay,97
"CHEK1 (Homo sapiens, UniProt O14757)",cell-free assay,100
"EPHA5 (Homo sapiens, UniProt P54756)",cell-free assay,96
"TEC (Homo sapiens, UniProt P42680)",binding,100
"FLT3 (Homo sapiens, UniProt P36888, ITD)",cell-free assay,80
"ALK (Homo sapiens, UniProt Q9UM73)",cell-free assay,100

# Series 3
# Organism: Sarcocystis neurona
# Read-out: parasite growth
# Tested at: 10 µM
# Notes: secondary screen
Structure (SMILES),inhibition
NS(=O)(=O)c1cc(C(=O)O)c(NCc2ccco2)cc1Cl,-15%
C[C@@H]1C[C@H]2[C@@H]3CCC4=CC(=O)C=C[C@]4(C)[C@@]3(F)[C@@H](O)C[C@]2(C)[C@H]1C(=O)CO,2.7%
CN(C)[C@@H]1C(O)=C(C(N)=O)C(=O)[C@@]2(O)C(O)=C3C(=O)c4c(O)cccc4[C@@](C)(O)[C@H]3[C@H](O)[C@@H]12,5.6%
CC(C)(C)NC(=O)[C@@H]1C[C@@H]2CCCC[C@@H]2CN1C[C@@H](O)[C@H](Cc1ccccc1)NC(=O)[C@H](CC(N)=O)NC(=O)c1ccc2ccccc2n1,11.7%
CC(=O)Oc1ccccc1C(=O)Nc1ncc([N+](=O)[O-])s1,-137%
COc1cc2nc(N3CCN(C(=O)c4ccco4)CC3)nc(N)c2cc1OC,75%

# Series 4
# Species: human
# Sample: microsomes or S9
# Tested at: 2 µM
# Time: 0.5 h
SMILES,remaining compound [%]
Cc1[nH]c2cccc3c2c1CCN1C(=O)OC2(CC(C)(C)NC(C)(C)C2)C31C (centres unmarked),53.6
COc1ccc(C2C(C(=O)N3CCN(c4ccccc4)CC3)CCC(=O)N2c2ccc3c(c2)OCO3)cc1 (centres unmarked),27.5
COC(=O)c1cc2cc(-c3ccccc3)c3ccccc3c2o1,57
CC1(C)CC(NC(=O)CCCNc2nc(Cl)nc3[nH]cnc23)CC(C)(C)N1,> 100
CCC(NC(=O)NCCc1cnn(C)c1C)c1c(C)noc1C (centres unmarked),75.7
CNCc1cc(N(C)C)nc(C2CCCN2S(=O)(=O)c2ccc3c(c2)CC(=O)N3C)n1 (centres unmarked),97.4

# Excerpt of the above (series 4):
SMILES,remaining compound [%]
CC1(C)CC(NC(=O)CCCNc2nc(Cl)nc3[nH]cnc23)CC(C)(C)N1,> 100
CNCc1cc(N(C)C)nc(C2CCCN2S(=O)(=O)c2ccc3c(c2)CC(=O)N3C)n1 (centres unmarked),97.4
CCC(NC(=O)NCCc1cnn(C)c1C)c1c(C)noc1C (centres unmarked),75.7
COc1ccc(C2C(C(=O)N3CCN(c4ccccc4)CC3)CCC(=O)N2c2ccc3c(c2)OCO3)cc1 (centres unmarked),27.5
COC(=O)c1cc2cc(-c3ccccc3)c3ccccc3c2o1,57
